Measured values of several laboratories.
Protocols differ between the studies behind these lines. Values joined by “and” are separate records of one study, mostly repeats; a detail may differ. ± gives the spread as reported.
UniProt P21397, sequence (whole entry, looked up): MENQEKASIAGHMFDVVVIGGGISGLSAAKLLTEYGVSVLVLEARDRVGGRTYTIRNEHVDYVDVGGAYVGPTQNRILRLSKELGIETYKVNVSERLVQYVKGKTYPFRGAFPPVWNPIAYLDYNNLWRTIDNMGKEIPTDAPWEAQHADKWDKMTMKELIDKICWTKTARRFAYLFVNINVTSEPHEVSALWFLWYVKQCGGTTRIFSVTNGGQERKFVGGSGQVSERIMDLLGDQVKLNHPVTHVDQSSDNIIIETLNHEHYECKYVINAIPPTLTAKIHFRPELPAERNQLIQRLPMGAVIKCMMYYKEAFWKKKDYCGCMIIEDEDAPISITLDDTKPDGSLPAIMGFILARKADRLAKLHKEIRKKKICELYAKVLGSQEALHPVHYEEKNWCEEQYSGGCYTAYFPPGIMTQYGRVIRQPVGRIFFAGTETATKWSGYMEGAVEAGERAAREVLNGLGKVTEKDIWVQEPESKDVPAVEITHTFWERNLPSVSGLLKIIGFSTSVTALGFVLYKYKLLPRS

N#Cc1ccc2c(c1)[C@H]1CCCN(C(=O)c3ccc4[nH]cnc4c3)[C@H]1C2  mean ACTH level (human; 20 mg, day 15): 8.1 pmol/L
CC[C@H]1[C@@H](O)[C@@H]2[C@H](CC[C@]3(C)[C@@H]([C@H](C)CCNC(=O)NS(=O)(=O)c4ccc(C(C)(C)C)cc4)CC[C@@H]23)[C@@]2(C)CC[C@@H](O)C[C@@H]12  AUC(0-inf) mean (ATP-dependent translocase ABCB1 (ABCB1, Homo sapiens, UniProt P08183); substrate; human, plasma; dose not given, alone): 377 ng·h/mL
Cn1cc(-c2ccc(-c3cncc(Cl)c3N3CCC4(CCNC4=O)CC3)cc2)cn1  log2 fold change (COLO 205; gene expression, microarray, measured: PDE4A mRNA; concentration not given, 6 h; relative to: untreated cells): 1.43
O=C(Nc1cc(F)c(F)c(F)c1)c1ccc(F)c(S(=O)(=O)NCc2ccc(B(O)O)cc2)c1  selectivity index (hepatitis B virus; HepAD38; relative to: CC50 over EC50): 16.6
Cc1cc(Nc2ccc(S(F)(F)(F)(F)F)cc2)n2nc(C(C)(F)F)nc2n1  patients with QTcF above threshold (Plasmodium vivax; 12-lead Holter ECG; human malaria patients; oral, 600 mg, QTc above 450 ms): 0%
CC1(C)CCC(c2ccc(Cl)cc2)=C(CN2CCN(c3ccc(C(=O)NS(=O)(=O)c4ccc(N[C@H](CCN5CCOCC5)CSc5ccccc5)c(S(=O)(=O)C(F)(F)F)c4)cc3)CC2)C1  drug secreted with TRL (mouse ileal enteroid monolayers; 50 % saturated solubility, 4 h, basolateral fractions 1-10, with: oleic acid/monoolein micelles): 11.2 ± 1.4%
CC(C)C[C@H](NC(=O)C[C@H](O)[C@H](CC(C)C)NC(=O)[C@H](Cc1c[nH]cn1)NC(=O)CNC(=O)[C@@H](NC(=O)[C@H](C)NC(=O)[C@H](Cc1c[nH]c2ccccc12)NC(=O)[C@H](CCC(N)=O)NC(=O)[C@@H](Cc1ccccc1)NC(=O)COCCOCCNC(=O)CCC(C(=O)O)N1CCN(CC(=O)O)CCN(CC(=O)O)CCN(CC(=O)O)CC1)C(C)C)C(N)=O (some centres unmarked) [lutetium-177 labelled]  tissue uptake (female BALB/c nu/nu mice, kidneys; intravenous, 50 pmol, 1 h): 3.8 ± 0.8 %ID/g
CN1CCN(c2cnc3c(cc(C(=O)NCc4ccc(Cl)cc4)c(=O)n3CC(=O)N3CC(C)(F)C3)n2)C1=O  selectivity index (Epstein-Barr virus; qPCR; single first test; relative to: CC50 over EC50): 215
CC(=O)Nc1cccc(-c2nnc(SCC(=O)Nc3ccc(C(C)=O)cc3)n2C)c1  logP (octanol/buffer; pH 11, known kinase inactives set): 1.68
CCCCCCCC[N+](CCCCCCCC)(CCCCCCCC)CCCCCCCC.[Br-]  LDH release (hTERT-RPTEC-OAT1; concentration not given, Transwell, basolateral-to-apical addition): 119 mU/mL and 98.2 mU/mL
Cc1cc(N)c2c(OCC(C)(C)C(=O)NC(C)C)cccc2n1  mean revertant colonies (Salmonella typhimurium; reverse mutation, plate incorporation; TA98; 1000 µg/plate, without S9): 18 colonies/plate
COc1ccccc1OCC(O)CN1CCN(CC(=O)Nc2c(C)cccc2C)CC1 (centres unmarked)  spike amplitude (hiPSC-derived cardiomyocytes; 50 µM, coupled and decoupled): decreased
NCc1cc2c(cc1F)C(=O)N(C1CCC(=O)NC1=O)C2 (centres unmarked)  concentration (Amine oxidase [flavin-containing] A (MAOA, Homo sapiens, UniProt P21397); substrate, LC-MS/MS; recombinant enzyme; 10 µM, 4 h, pH 7.4): 8.6 µM
CC[C@H](C)[C@H](NC(=O)[C@H](Cc1ccc(O)cc1)NC(=O)[C@@H](NC(=O)[C@@H](N)CCCN=C(N)N)C(C)C)C(=O)N[C@@H](Cc1c[nH]cn1)C(=O)N1CCC[C@H]1C(=O)N[C@@H](Cc1ccccc1)C(=O)O  proteolytic conversion (chymotrypsin; LC-MS; 20 µM, 120 min, pH 7.4, 25 °C): 99.9 ± 0.3%

Excerpt of the above:
O=C(Nc1cc(F)c(F)c(F)c1)c1ccc(F)c(S(=O)(=O)NCc2ccc(B(O)O)cc2)c1  selectivity index (hepatitis B virus; HepAD38; relative to: CC50 over EC50): 16.6
Cc1cc(Nc2ccc(S(F)(F)(F)(F)F)cc2)n2nc(C(C)(F)F)nc2n1  patients with QTcF above threshold (Plasmodium vivax; 12-lead Holter ECG; human malaria patients; oral, 600 mg, QTc above 450 ms): 0%
